Results collected from several papers.
Numbered parts are unrelated; each lists some results of a single study.

Series 1 — technique: universal PBM; form: double-stranded DNA, one strand shown; matrix: in vitro; tested at: not given; direction: higher = stronger binding
Target: Sal-like protein 4, full length isoform B (SALL4, Homo sapiens, UniProt Q9UJQ4-2, residues 1-616)
Notes: 8-mer, flanks averaged, mean of replicates
| Sequence | E-score |
| --- | --- |
| ATTTGGTG | 0.127 |
| ATACGAGC | 0.0734 |
| CAAGGTAC | 0.0248 |
| CCGCCATC | -0.281 |
| CATCAGAA | 0.209 |
| GTCGGTAA | -0.058 |
| CCGCGAGC | -0.327 |
| ACCTTCGA | 0.0975 |
| CAGAATTA | 0.154 |
| AGACGACT | -0.165 |
| ATAGAACG | 0.228 |
| TATTCAGA | 0.184 |
| CACATTCA | 0.0815 |
| ACACTGGC | -0.128 |
| ACCTAGGT | -0.278 |
| GACACGGA | -0.168 |
| ACAATACT | 0.237 |
| CATATCAA | 0.336 |
| TACTCAGA | 0.033 |
| ACTCCACA | -0.0574 |
| AGGACTTA | 0.0625 |

Series 2 — technique: protein binding microarray; form: double-stranded DNA, one strand shown; matrix: in vitro; tested at: not given; baseline: not given; direction: higher = stronger binding
Target: Histone acetyltransferase KAT6A, winged helix 1, GST fusion (KAT6A, Homo sapiens, UniProt Q92794, residues 1-85)
Notes: 8-mer, flanks averaged, mean of 2 arrays, mostly near background
Residues (chain): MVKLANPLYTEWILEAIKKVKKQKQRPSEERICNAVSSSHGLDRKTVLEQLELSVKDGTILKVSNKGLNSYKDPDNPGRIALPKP
| Sequence | E-score |
| --- | --- |
| GCGCTTAA | 0.27 |
| GCGGCGAA | 0.394 |
| ATCCCTAA | -0.18 |
| GATGCACA | -0.0853 |
| GAAACAGA | -0.23 |
| ATCTCAAG | -0.27 |
| TAGAGAGA | -0.181 |
| CGAACGTA | -0.0668 |
| ACCCCGCT | 0.225 |
| CCGCATTC | 0.174 |
| TGTACACA | -0.161 |
| AACCTAGA | -0.115 |
| TGTGCAAA | -0.173 |
| CACCGGCA | 0.269 |
| ACCACTAG | -0.225 |
| ATCTAAGA | -0.249 |
| TCATAAAA | -0.0714 |
| CCTGGAAC | -0.313 |
| AAGGAGAT | -0.116 |
| AGGCTGTC | -0.00051 |
| AGGCAAGG | -0.219 |
| ATTTCCAA | -0.237 |
| AGCTCACC | -0.0043 |
| CCCCAAGC | 0.0101 |
| GTCAATTA | 0.122 |

Series 3 — technique: RNA Bind-n-Seq; form: RNA; matrix: in vitro; tested at: 20 nM; notes: 6-mer, flanks averaged, single round; with: 150 mM LiCl; baseline: input library; direction: higher = stronger binding
Target: TAR DNA-binding protein 43, full length, His tag (TARDBP, Homo sapiens, UniProt Q13148, residues 1-414)
| Sequence | 6-mer enrichment (R) |
| --- | --- |
| CGAGGA | 0.959 |
| GCGGCC | 1.03 |
| CCGACU | 0.84 |
| CGGAAA | 0.873 |
| GGAUUU | 0.963 |
| UCGCUC | 0.831 |
| GUCUGG | 1.09 |
| CUGCAC | 0.912 |
| CCCACG | 0.972 |
| UAAUGC | 0.921 |
| AUUUAA | 0.99 |
| UAAUUC | 0.93 |
| AGACGG | 0.934 |
| GGGACU | 1.09 |
| CCCAAC | 0.938 |
| AUCCCC | 1.11 |
| GAGCUU | 0.913 |
| AAUUGU | 1.04 |
| GGUUGG | 1.32 |

Series 4 — technique: protein-binding microarray; form: double-stranded DNA, one strand shown; matrix: in vitro; tested at: 250 nM; notes: 60-bp whole probe; with: salmon DNA 0.4 mg/ml; baseline: random background probes; direction: higher = stronger binding; all sequences stand within: GCCTAGCAC … GTCTTGATTCGCTTGACGCTGCTG
Target: Interferon regulatory factor 7, full length, phosphomimetic (IRF7, Homo sapiens, UniProt Q92985, residues 1-503, S101K/S471D/S472D/S475D/S476D/S477D/S483D/S484D/S487D)
Sequence of UniProt Q92985 (whole entry, unmodified, looked up): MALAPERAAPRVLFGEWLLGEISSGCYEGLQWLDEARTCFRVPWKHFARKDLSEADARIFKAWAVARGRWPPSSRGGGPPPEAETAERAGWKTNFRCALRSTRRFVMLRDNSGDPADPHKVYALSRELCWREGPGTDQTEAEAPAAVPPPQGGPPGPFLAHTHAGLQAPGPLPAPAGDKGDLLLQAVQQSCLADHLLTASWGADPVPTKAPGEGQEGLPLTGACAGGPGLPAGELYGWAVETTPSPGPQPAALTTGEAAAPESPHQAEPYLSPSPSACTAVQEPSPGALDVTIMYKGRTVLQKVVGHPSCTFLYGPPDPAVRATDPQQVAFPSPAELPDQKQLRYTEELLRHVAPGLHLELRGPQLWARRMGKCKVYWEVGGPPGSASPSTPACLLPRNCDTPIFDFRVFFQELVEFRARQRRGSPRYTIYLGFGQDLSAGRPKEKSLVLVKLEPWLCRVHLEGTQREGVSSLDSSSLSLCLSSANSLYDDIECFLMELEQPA
| Sequence | log fluorescence |
| --- | --- |
| TTAGCTATCGACTTTCGGTTAGTGCTA | 0.716 z-score |
| TTAGGTATCGACTTTGGGTTAGTGCTA | 0.855 z-score |
| GACGATCTAAGTTTCGAGACGTGCTAG | 3.96 z-score |
| TCATCTCGGAGATCTCGAACTGTGCTA | 0.00998 z-score |
| TTAGGTTTCGACCCTGGGTTAGTGCTA | 3.27 z-score |
| TTGTGTCTGGGCTTTTTCCCCGTGCTA | -1.14 z-score |
| GACGGTTTGGGGTATCGGGACGTGCTA | 0.0178 z-score |
| CTAGGTTTCGACACTGGGTTAGTGCTA | 4.06 z-score |
| GACGATATCAGACTGGAAACGTGCTAG | 0.0995 z-score |
| TAATTTTTACTTTCTGAATGGTGCTAG | 1.04 z-score |
| TTAGGTATCCTTATCATTTAGTGCTAG | 0.481 z-score |
| ACTTTTTTTTTTCCCTGAAAGTGCTAG | 1.38 z-score |
| GACGATCTCAGACTGCAGACGTGCTAG | -0.38 z-score |
| TCATTCCTCTTTTTTGTACTGTGCTAG | 2.32 z-score |
| TTACGTTTCGGGTTTCGGTTAGTGCTA | 9.94 z-score |
| GCCGATTTCAGTTCCGAGACGTGCTAG | 1.14 z-score |
| GACGATATTAGTTTCGAGACGTGCTAG | 5.13 z-score |
| TTAGGTTTCCTACTGCTTGAGTGCTAG | 1.33 z-score |
| ATAGGTATCGGGTATCGGTTAGTGCTA | 1.72 z-score |
| TCACACCAGAGGGCGCTGTGGTGCTAG | -0.56 z-score |
| TTAGGTTTCCTACGGCTTTAGTGCTAG | 0.636 z-score |
| GACGAACTGGGTCTCGAGACGTGCTAG | 0.0515 z-score |
| TCACCTTCACCTCTCTGACTGTGCTAG | 0.139 z-score |
| ATAGGTCTCGGTATCGGTTAGTGCTAG | 3.36 z-score |
| TTAGATATAAGTCTCGATTAGTGCTAG | 1.89 z-score |

Series 5 — technique: RNA Bind-n-Seq; form: RNA; matrix: in vitro; tested at: 365 nM; baseline: no-protein control; direction: higher = stronger binding
Target: RNA binding protein fox-1 homolog 2, RRM domain, GST-SBP tag (RBFOX2, Homo sapiens, UniProt O43251-10, residues 100-194)
Notes: natural RNA segment, single round, ends assumed
Residues (chain): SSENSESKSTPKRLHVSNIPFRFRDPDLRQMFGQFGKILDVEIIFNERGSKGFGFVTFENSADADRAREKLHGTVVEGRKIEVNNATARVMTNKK
| Sequence | RBNS enrichment (R) |
| --- | --- |
| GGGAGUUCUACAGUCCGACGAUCUGAGCCGCGUCAUCUGUUUGCGCUGGGCAAGGAGCUGCACCGCUGCGUUGACCUGCCUUGUCUUACGGUACACACAGCAAUAAAGCCUGGGUUCCGCCCGGUCUCCACCCUGGAAUUCUCGGGUGCCAA | 0.841 |
| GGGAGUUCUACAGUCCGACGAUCGUGAAAUCUCAGUAAGUUAUUUUGGAGUUUAUUAAAGGUUCACAUUUUAAGUACAACUUUUCAGGCUAGUUACUGUGAUGGACAUUGAGGUGUUUGUAGAACUGACUCUUUGGAAUUCUCGGGUGCCAA | 0.298 |
| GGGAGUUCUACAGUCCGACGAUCUUGUGGACAAACCUGGCAGUUGAGCUUUGCAGUCAAUUAUGCCGUAUCCCUGUGCAAACUCCCAUGUUCUAGUUGCUGUUAGCAUCCCCUUUGUUGCUGUCUGAGAAAGUUGGAAUUCUCGGGUGCCAA | 2.03 |
| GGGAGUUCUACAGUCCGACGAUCAAACUAAAUGCGUUUUUAAGCAAUUUUUAAGACUUGUAAUUACCCUAAAAAUAAGGUUUAUUAAGCCAAGACCAGACUUUUGAGCAGGGCAGCACUGCCAGGCUGUCGUCUGGAAUUCUCGGGUGCCAA | 0.324 |
| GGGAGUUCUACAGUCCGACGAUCCAGGUGGAACUGCCAGUAUAGAAAGGAUUCUAUGCUGGGCACACAGGACUAUCUCUUUAUGGAAGGAGACAUAUGGGAACAUCCACCACUACCCUCUCCUACCAUCUUCCUGGAAUUCUCGGGUGCCAA | 0.284 |
| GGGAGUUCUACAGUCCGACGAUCCAGCCAUAGAGAUUUUAAUUAGCCCAACUAGAAGCCUAGUGUGUGUGCUUUCUUAAUGUGUGUGCCAAUGGUGGAUCUUUGCUACUGAAUGUGUUUGAACAUGUUUUGAGUGGAAUUCUCGGGUGCCAA | 3.6 |
| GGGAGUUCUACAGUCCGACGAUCUUUAUUUGUUUCUGGUUUAGCCUCAAGGGCUGGAAGCUGGGCCUGUAUUGAAUAAACAGAAACCCAGACAGAAUGCAUGGGCUCCUUGCAAUGGCUCAGACCCUUUGCAGUGGAAUUCUCGGGUGCCAA | 2.02 |
| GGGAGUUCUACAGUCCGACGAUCGAGCCAGCAGUCCAGGCUCCUCCUCAGUUACAGUGCUGACAUAAUAAACAGUGACAGAUCAACAGUCUCCUUGAAAUCUGAGUUUUUCUCCACCUGGGGCUGGUGUGGAGUGGAAUUCUCGGGUGCCAA | 0.606 |
| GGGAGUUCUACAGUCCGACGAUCACUGAUUUUUGUAGUUUUGGUAUUUAAAGCAAAAACAAACAAAAAACAAACCCCUUUUUGGUACCUGCACUGCAUCCCUCGGGUGGGGCAGUGCCUACUUUGGAAGAUGCUGGAAUUCUCGGGUGCCAA | 0.264 |
| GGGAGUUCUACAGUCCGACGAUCGGCUGCUUGGCAAGGCUGUUCAGGACGUGCACUUCCCCAAGUCGGCACUGAGUGGCCCAGCACCGCCUAGCCCUGCCACCCCACUGCCCUCCUGGGCCUUCUGCUGGAUGUGGAAUUCUCGGGUGCCAA | 0.558 |
| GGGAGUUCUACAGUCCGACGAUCUCUUGUGUUGGCUGUGGCAGGCCAGCUGUGGUUUUCUUUUGCCAUGACAACUUCUAAUUGCCAUGUACAGUAUGUUCAAAGUCAAAUAACUCCUCAUUGUAAACAAACUGUGGAAUUCUCGGGUGCCAA | 0.357 |
| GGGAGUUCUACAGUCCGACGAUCCUGUAGUACUGGUGUCAUGGAAAUAUAUGUUAUUUCCACAGUCAUUUCAUUAAAGAUGAAAACUUUAUUCUUGCUGUGAUUUGUACUUAUAUAAGUGUGGAUCAUCAUAAUGGAAUUCUCGGGUGCCAA | 0.305 |
